Results pooled from the literature.
Each numbered part is a random draw from the data of one study; scales do not carry over between parts. “And” joins repeats or separate records; there may be more than shown.
Chain of UniProt P07270 (whole entry, looked up): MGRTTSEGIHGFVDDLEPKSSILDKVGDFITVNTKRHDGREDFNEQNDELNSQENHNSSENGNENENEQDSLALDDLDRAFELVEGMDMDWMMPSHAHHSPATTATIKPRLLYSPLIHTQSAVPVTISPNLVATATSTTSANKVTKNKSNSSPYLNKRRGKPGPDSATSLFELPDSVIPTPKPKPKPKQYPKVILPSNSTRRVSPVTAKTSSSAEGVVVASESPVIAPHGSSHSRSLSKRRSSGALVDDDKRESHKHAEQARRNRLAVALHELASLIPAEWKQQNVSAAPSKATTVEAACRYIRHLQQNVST

Block 1
Target: PABPC1L2, full length, GST fusion (mouse, UniProt A0ABA7IW68)
Method: RNAcompete
Molecule type: RNA
Medium: in vitro
Concentration: 20 nM
Notes: 7-mer, probes averaged, single round
Reference: mean of 7-mers
Reading: higher = stronger binding
Construct (chain): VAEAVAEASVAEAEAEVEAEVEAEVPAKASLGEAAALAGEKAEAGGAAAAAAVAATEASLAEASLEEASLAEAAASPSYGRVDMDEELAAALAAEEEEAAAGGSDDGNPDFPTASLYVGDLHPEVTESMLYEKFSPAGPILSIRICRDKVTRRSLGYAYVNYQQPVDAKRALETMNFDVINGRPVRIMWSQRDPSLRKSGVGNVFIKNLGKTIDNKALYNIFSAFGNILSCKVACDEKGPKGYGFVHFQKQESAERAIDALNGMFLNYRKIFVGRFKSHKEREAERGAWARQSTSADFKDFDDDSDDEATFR
Sequence | 7-mer Z-score
AUUCUGA | -0.336
GAGUCAA | -0.0826
AGUUACA | -0.206
AUACAUC | -0.0373
UCCACAG | -0.177

Block 2
Target: Histone acetyltransferase KAT6A, both winged helices, GST fusion (KAT6A, Homo sapiens, UniProt Q92794, residues 1-181)
Method: protein binding microarray
Molecule type: double-stranded DNA, one strand shown
Medium: in vitro
Concentration: not given
Notes: 8-mer, flanks averaged, mean of 2 arrays, mostly near background
Reference: not given
Reading: higher = stronger binding
Construct (chain): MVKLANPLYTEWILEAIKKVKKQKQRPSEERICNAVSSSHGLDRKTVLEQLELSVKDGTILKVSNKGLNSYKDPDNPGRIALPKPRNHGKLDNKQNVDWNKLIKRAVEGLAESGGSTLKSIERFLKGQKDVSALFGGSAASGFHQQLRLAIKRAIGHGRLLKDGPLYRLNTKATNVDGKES
Sequence | E-score
AGGTTATA | -0.106
AAAAAAAT | -0.0216
CATCCGCA | 0.113
CGACCGCA | 0.234

Mixed results
CBF1 full length, N-terminal tag: Centromere-binding protein 1, full length, N-terminal tag (CBF1, Saccharomyces cerevisiae, UniProt P17106, residues 1-351)
Chain of UniProt P17106 (whole entry, looked up): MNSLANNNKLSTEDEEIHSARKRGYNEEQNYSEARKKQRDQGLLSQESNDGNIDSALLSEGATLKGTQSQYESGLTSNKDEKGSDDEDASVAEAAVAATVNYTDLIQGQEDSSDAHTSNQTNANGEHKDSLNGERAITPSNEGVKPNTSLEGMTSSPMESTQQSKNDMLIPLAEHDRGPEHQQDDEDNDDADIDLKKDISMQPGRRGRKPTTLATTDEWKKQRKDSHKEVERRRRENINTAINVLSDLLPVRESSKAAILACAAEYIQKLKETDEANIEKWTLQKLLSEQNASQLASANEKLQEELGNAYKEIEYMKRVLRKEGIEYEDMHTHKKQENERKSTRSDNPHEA
Molecule | target | assay | test system | conditions | how to read | measurement | value
GAAATTTTAACGCAGAACGTGCCGAAGAAAAAAAAAGTCTTGATTCGCTTGACGCTGCTG | Phosphate system positive regulatory protein PHO4, full length, GST-tagged (PHO4, Saccharomyces cerevisiae, UniProt P07270, residues 1-312) | competition protein-binding microarray | double-stranded DNA, one strand shown, in vitro | 2 µM, whole 60-bp probe, lowest competitor level, added: Cbf1 competitor, 0.05 µM | higher = stronger binding | fluorescence intensity | 14500 a.u.
PhoQ, residues 284 288 289 292 302 303 TNSAEL | PhoP, residues 12 14 15 18 19 LWHCS (Escherichia coli, UniProt P23836) | Sort-seq, item: YFP reporter | E. coli | PhoQ-PhoP variant library, added: 10 µM Mg2+ | reference: high Mg2+ state, higher = stronger signaling | fold induction | 17.3 and 13.4
CTACTCATGCTTTGGCGCGTGCGCATCTATATATTCGTCTTGATTCGCTTGACGCTGCTG | CBF1 full length, N-terminal tag | protein-binding microarray | double-stranded DNA, one strand shown, in vitro | 0.8 µM, whole 60-bp probe, no competitor | higher = stronger binding | fluorescence intensity | 677 a.u.
CTAAGTATCAAAAGAAACGTGCATAAGGACATGTTCGTCTTGATTCGCTTGACGCTGCTG | CBF1 full length, N-terminal tag | protein-binding microarray | double-stranded DNA, one strand shown, in vitro | 0.8 µM, whole 60-bp probe, no competitor | higher = stronger binding | fluorescence intensity | 606 a.u.
